Published values from different studies.
Parts stem from different laboratories: compare values within a part only. Changes are numbered by the printed parent chain.
UniProt P08473, sequence (whole entry, looked up): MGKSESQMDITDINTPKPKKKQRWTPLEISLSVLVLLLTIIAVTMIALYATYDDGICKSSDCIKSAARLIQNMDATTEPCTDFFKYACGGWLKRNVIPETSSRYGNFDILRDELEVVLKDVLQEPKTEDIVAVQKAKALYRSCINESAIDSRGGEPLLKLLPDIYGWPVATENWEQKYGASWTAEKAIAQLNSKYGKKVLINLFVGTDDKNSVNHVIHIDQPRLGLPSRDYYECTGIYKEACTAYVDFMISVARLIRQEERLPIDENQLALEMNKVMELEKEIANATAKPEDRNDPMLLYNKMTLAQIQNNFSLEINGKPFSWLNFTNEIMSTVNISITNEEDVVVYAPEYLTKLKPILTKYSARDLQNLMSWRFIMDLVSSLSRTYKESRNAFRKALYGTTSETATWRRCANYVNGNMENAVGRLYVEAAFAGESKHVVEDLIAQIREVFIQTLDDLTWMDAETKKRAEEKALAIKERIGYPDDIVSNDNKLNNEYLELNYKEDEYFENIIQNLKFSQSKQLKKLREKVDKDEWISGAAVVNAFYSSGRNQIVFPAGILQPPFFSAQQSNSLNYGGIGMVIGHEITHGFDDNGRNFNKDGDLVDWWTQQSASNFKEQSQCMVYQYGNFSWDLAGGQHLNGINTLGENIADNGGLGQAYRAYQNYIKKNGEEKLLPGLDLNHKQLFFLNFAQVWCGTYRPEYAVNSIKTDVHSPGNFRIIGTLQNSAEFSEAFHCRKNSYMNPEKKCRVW
UniProt Q9UQM7, sequence (whole entry, looked up): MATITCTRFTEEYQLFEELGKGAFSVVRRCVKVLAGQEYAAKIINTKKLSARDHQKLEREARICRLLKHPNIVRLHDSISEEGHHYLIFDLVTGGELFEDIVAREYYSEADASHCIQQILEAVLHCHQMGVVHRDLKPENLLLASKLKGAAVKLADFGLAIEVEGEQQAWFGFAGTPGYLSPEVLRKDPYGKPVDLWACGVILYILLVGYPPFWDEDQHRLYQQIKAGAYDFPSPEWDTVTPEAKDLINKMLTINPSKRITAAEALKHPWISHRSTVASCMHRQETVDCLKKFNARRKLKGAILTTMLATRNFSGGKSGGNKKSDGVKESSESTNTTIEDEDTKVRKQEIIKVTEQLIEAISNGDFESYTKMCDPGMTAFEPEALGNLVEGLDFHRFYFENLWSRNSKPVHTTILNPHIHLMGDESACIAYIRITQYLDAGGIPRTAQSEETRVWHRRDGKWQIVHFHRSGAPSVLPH

Block 1
Target: CCND2, cyclin fold, Cln2 fusion (human)
Technique: yeast growth competition, sequencing
Matrix: yeast
Notes: strong parent motif
Reference: not given
Reading: higher = stronger binding
Starting sequence: viral docking peptide; YKVKRRLVFGADD
| Substitution | normalised enrichment score |
| --- | --- |
| R5K F9L | 0.242 |
| A11E | 2.02 |
| D12P | 0.948 |
| K4N | 1 |
| K2V | 1.04 |
| K4L | -0.0695 |
| R6P | 0.372 |
| V3M | 0.413 |

Block 2
Target: UBE2D2 UBC core domain (UniProt P62837)
UniProt P62837, sequence (whole entry, looked up): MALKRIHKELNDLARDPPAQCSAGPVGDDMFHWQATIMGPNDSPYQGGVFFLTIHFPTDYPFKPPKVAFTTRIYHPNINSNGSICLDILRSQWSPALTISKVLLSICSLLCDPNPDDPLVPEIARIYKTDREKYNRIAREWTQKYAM
Technique: yeast two-hybrid
Matrix: yeast
Notes: mostly zero background
Reference: not given
Reading: higher = stronger interaction
B1: RNF186 RING domain (UniProt Q9NXI6); chain HSGSTECDLECLVCREPYSCPRLPKLLACQHAFCAICLKLLLCVQDNTWSITCPLCRKVTAVPGGLI
B2: BFAR RING domain (UniProt Q9NZS9); chain GPQISVSEFSCHCCYDILVNPTTLNCGHSFCRHCLALWWASSKKTECPECREKWEGFPKVS
B3: TRIM41 RING domain (UniProt Q8WV44); chain PVQTLQEEAVCAICLDYFTDPVSIGCGHNFCRVCVTQLWGGEDEEDRDELDREEEEEDGEEE
B4: RNF103 RING domain (UniProt O00237); chain WPADMLHCTECVVCLENFENGCLLMGLPCGHVFHQNCIVMWLAGGRHCCPVCRWPSYKKKQPY
B5: VPS8 RING domain (UniProt Q8N3P4); chain TRGLNPKQDYCSICLQQYKRRQEMADEIIVFSCGHLYHSFCLQNKECTVEFEGQTRWTCYKCSSSNKVGKLSE
B6: ARIH2 RING domain (UniProt O95376); chain HVPTSHPPHHCAVCMQFVRKENLLSLACQHQFCRSCWEQHCSVLVKDGVGVGVSCMAQDCPLRTPEDFVF
B7: TRIM11 RING domain (UniProt Q96F44); chain LSTNLQEEATCAICLDYFTDPVMTDCGHNFCRECIRRCWGQPEGPYACPECRELSPQRNLRP
| Sequence | lacZ reporter activity |
| --- | --- |
| B1 (RNF186 RING domain) | 12500 |
| B2 (BFAR RING domain) | 0 |
| B3 (TRIM41 RING domain) | 0 |
| B4 (RNF103 RING domain) | 16800 |
| ASEEEFQFLRCQQCQAEAKCPKLLPCLHTLCSGCLEASGMQCPICQAPWPLGADTP (PML RING domain (UniProt P29590)) | 0 |
| B5 (VPS8 RING domain) | 0 |
| B6 (ARIH2 RING domain) | 0 |
| B7 (TRIM11 RING domain) | 0 |

Single results of other studies
| SMILES | target or system | test | system | setting | scale | endpoint | value |
| --- | --- | --- | --- | --- | --- | --- | --- |
| CC(C)C[C@H](NP(=O)(O)O[C@@H]1O[C@@H](C)[C@H](O)[C@@H](O)[C@H]1O)C(=O)N[C@@H](Cc1c[nH]c2ccccc12)C(=O)O | Neprilysin (MME, Homo sapiens, UniProt P08473) | – | – | – | – | IC50 | 244 nM |
| CO[C@H]1CC=C2CCN3CCC4=C(CC(=O)OC4)[C@]23C1 | mouse MPNST tumor cells | high-content immunofluorescence imaging, item: nuclear SOX9 | – | 10 µM, 12 h, mean of 2 replicates | reference: DMSO control, higher = more nuclear SOX9 | nuclear SOX9 intensity | 93.2 % of DMSO |
| CC(C)n1nc(O)c2c1NC(=O)CSC2c1ccc(C(=O)O)cc1 (stereo not shown) | – | – | human, microsomes or S9 | 2 µM, 0.5 h | – | remaining compound | 78.2% |
| CCOC(=O)[C@@H]1CSCC(=O)N[C@H](CC)C(=O)N(C)[C@@H](C)C(=O)N[C@@H](CC(C)C)C(=O)N(C)[C@H](C)C(=O)N(CC(C)C)CC(=O)N[C@H](CC(C)C)C(=O)N(C)[C@H](C)C(=O)N[C@@H](CC(C)C)C(=O)N1C | – | PRP-column chromatography | – | – | – | log k' (60) | 1.21 |
| CC12CC3(C(=O)Nc4ccc(Cl)cc4C(=O)c4ccccc4)C1CCC23C (stereo not shown) | – | – | human, microsomes or S9 | 2 µM, 0.5 h | – | remaining compound | 0% |
| C[C@H]1CC[C@@H]2N(C1)C[C@H]1[C@@H]3C[C@H]4[C@@H](C[C@@H](O)[C@H]5C[C@@H](O)CC[C@@]54C)[C@@H]3CC[C@@H]1[C@]2(C)O | CAMK2A (Homo sapiens, UniProt Q9UQM7) | enzyme activity, inhibitor | – | 10 µM | – | inhibition | -17% |
